Experimental data gathered from unrelated publications.
Numbered parts are unrelated; each lists some results of a single study. “And” joins repeats or separate records; there may be more than shown.

Block 1
Target: Interferon regulatory factor 5, full length, phosphomimetic (IRF5, Homo sapiens, UniProt Q13568-2, residues 1-514, K96S/S451D/S453D/S456D/S462D)
Method: protein-binding microarray
Form: double-stranded DNA, one strand shown
Sample: in vitro
Concentration: 250 nM
Notes: 60-bp whole probe
With: salmon DNA 0.4 mg/ml
Baseline: random background probes
Reading: higher = stronger binding
Measurement: log fluorescence
Strand = GCCTAGCACCATCCGTTTCTTCTAGACTTGTGCTAGGTCTTGATTCGCTTGACGCTGCTG; result = 1.11 z-score
Strand = GCCTAGCACGACGGTTCCCTCTTCCTGACGTGCTAGGTCTTGATTCGCTTGACGCTGCTG; result = 0.203 z-score
Strand = GCCTAGCACTTAGAACCGGGGTTTCGATTAGTGCTAGTCTTGATTCGCTTGACGCTGCTG; result = 6.24 z-score
Strand = GCCTAGCACGACGAACTGAGTATAGAGACGTGCTAGGTCTTGATTCGCTTGACGCTGCTG; result = -0.402 z-score

Block 2
Target: Centromere-binding protein 1, full length, His-tagged (CBF1, Saccharomyces cerevisiae, UniProt P17106, residues 1-351)
Chain of UniProt P17106 (whole entry, looked up): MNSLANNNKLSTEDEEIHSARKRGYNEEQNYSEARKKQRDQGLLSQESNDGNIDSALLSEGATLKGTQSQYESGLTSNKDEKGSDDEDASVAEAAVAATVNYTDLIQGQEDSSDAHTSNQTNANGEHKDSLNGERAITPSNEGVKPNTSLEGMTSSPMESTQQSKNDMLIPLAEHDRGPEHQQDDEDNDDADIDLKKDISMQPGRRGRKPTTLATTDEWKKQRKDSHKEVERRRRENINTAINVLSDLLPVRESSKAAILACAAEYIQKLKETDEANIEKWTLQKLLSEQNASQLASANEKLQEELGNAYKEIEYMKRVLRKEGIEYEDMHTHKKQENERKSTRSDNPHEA
Method: competition protein-binding microarray
Form: double-stranded DNA, one strand shown
Sample: in vitro
Concentration: 2 µM
Notes: whole 60-bp probe, lowest competitor level
With: Pho4 competitor, 0.05 µM
Reading: higher = stronger binding
Measurement: fluorescence intensity
Strand = TTGTCTCACTATTAACGCGTGGCCGGGTAAGACCCAGTCTTGATTCGCTTGACGCTGCTG; result = 68.8 a.u.
Strand = TACATCTATTATATTCACGTGCAAAGCATTTTCAGCGTCTTGATTCGCTTGACGCTGCTG; result = 2180 a.u.
Strand = TCGGTTGTCCAAACCCATGTGGTGCTGGTGGCGGAAGTCTTGATTCGCTTGACGCTGCTG; result = 74.4 a.u.

Block 3
Target: Histone acetyltransferase KAT6A, both winged helices, GST fusion (KAT6A, Homo sapiens, UniProt Q92794, residues 1-181)
Method: protein binding microarray
Form: double-stranded DNA, one strand shown
Sample: in vitro
Concentration: not given
Notes: 8-mer, flanks averaged, mean of 2 arrays, mostly near background
Baseline: not given
Reading: higher = stronger binding
Measurement: E-score
Construct (chain): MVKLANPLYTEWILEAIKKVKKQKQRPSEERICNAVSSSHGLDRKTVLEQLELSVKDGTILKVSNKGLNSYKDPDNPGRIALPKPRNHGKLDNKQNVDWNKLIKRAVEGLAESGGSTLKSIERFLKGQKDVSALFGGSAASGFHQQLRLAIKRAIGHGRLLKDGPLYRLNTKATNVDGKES
Strand = CGGAAACG; result = 0.295
Strand = AGGGACAG; result = -0.234
Strand = GCAACCCA; result = -0.136
Strand = GATGCTGA; result = -0.136

Single results of other studies
Molecule = PhoQ, residues 284 288 289 292 302 303 AAQSYM; target = PhoP, residues 12 14 15 18 19 LWHCS (Escherichia coli, UniProt P23836); assay = Sort-seq, item: YFP reporter; system = E. coli; setting = PhoQ-PhoP variant library, with: 10 µM Mg2+; scale = baseline: high Mg2+ state, higher = stronger signaling; measurement = fold induction; result = 13.2 and 19.6

Excerpt of the above (single results of other studies):
Molecule = PhoQ, residues 284 288 289 292 302 303 AAQSYM; target = PhoP, residues 12 14 15 18 19 LWHCS (Escherichia coli, UniProt P23836); assay = Sort-seq, item: YFP reporter; system = E. coli; setting = PhoQ-PhoP variant library, with: 10 µM Mg2+; scale = baseline: high Mg2+ state, higher = stronger signaling; measurement = fold induction; result = 13.2 and 19.6
